Measurements from different studies.
Every numbered part comes from another study and shows a few of its results, in no order.

Series 1 — method: RNA Bind-n-Seq; molecule type: RNA; medium: in vitro; concentration: 20 nM; setting: 6-mer, flanks averaged, single round; together with: 150 mM KCl; baseline: input library; reading: higher = stronger binding; measurement: 6-mer enrichment (R)
Target: TAR DNA-binding protein 43, full length, His tag (TARDBP, Homo sapiens, UniProt Q13148, residues 1-414)
GAGUAC: 0.858
UUAGAU: 0.59
UCUAUU: 0.573
UUCAGA: 0.59
GAUAUU: 0.631
AUGUAG: 0.914
GCGGUU: 1.25
CCCAAA: 0.665

Series 2 — method: RNA Bind-n-Seq; molecule type: RNA; medium: in vitro; concentration: 200 nM; setting: whole 134-nt RNA, ends assumed; together with: 150 mM LiCl; baseline: input library; reading: higher = stronger binding; measurement: log2 enrichment; library: 7-deaza-guanosine replaces G
Target: Fragile X messenger ribonucleoprotein 1, C-terminal low-complexity region (Fmr1, Mus musculus, UniProt P35922)
Constant ends, left off below: GGGAGUUCUACAGUCCGACGAUC … UGGAAUUCUCGGGUGUCAAGG
CAAGUCCUGUGCUACACAUCGUAUGUACCGAAUCGGGCCCGGGCCCGGGGCCCGGGAAAGUAUUAUGUUACGCCGUUCGGAUCUGCACUU: -2.71
AGUCCUGUGCUACACAUCGUAUGUACCGAAUCGGGAAAAAGGGUUUGGGAAAAAGGGAAAGUAUUAUGUUACGCCGUUCGGAUCUGCACU: -2.44
ACCAUGCAGGUGGGCAUCUUUGGGAAGUGGGGCAAGGGGGGGAUAGGGAGGGGGGUAACACUUUGGGAACAGGUGGUCCCAGGUUGUUUC: 0.742
UGGAAGUGGCGCUGGCGCCUGAAGAGUUGGAGCUGGAUCCUAUGGCCAUGACCCAGAAGUAUGAGGAGCAUGUGCGGGAGCAGCAGGCUC: -1.3
UGGCCCUGGUGGCAUGCGGGGAGGAAGAGGUGGCCUCAUGGAUCGUGGUGGUCCCGGUGGAAUGUUCAGAGGUGGCCGUGGUGGAUACAG: -0.269
UGUGCUACACAUCGUAUGUACCGAAUCGGGGAAAAAGGGGAAAAAAAGGGGUUUUUUUGGGGAAAGUAUUAUGUUACGCCGUUCGGAUCU: -0.204
AGUCCUGUGCUACACAUCGUAUGUACCGAAUCGGGUUUUUGGUUUUUGGUUUUUGGGGAAAGUAUUAUGUUACGCCGUUCGGAUCUGCAC: -1.4
UCCAGUCUAGCUUUGGAGAAGCGCCAACCUGCUCACUGCCGCCGACCAGACUGCAUGUUUGGUUGUACUUGUUUGAAAAGAAAAGUUGUA: -0.835

Single results of other studies
PhoQ, residues 284 288 289 292 302 303 GLASVI  fold induction (PhoP, residues 12 14 15 18 19 FWNTL (Escherichia coli, UniProt P23836); Sort-seq, refers to: YFP reporter; E. coli; PhoQ-PhoP variant library, together with: 10 µM Mg2+; baseline: high Mg2+ state, higher = stronger signaling): 16.1
CC(C)n1cnc(-c2ccc(F)cc2)c1-c1ncc(C(=O)Nc2ccc(N3CCN(C)CC3)cc2)[nH]1  adverse event incidence (phase 2a trial, refers to: infection; idiopathic pulmonary fibrosis patients; dose not given, grade 2, all arms pooled): 0%

Excerpt of the above (series 1):
AUGUAG: 0.914
UUAGAU: 0.59
UUCAGA: 0.59
